Measurements of several laboratories.
Target: Delta-type opioid receptor (OPRD1, Homo sapiens, UniProt P41143)
Sequence of UniProt P41143 (whole entry, looked up): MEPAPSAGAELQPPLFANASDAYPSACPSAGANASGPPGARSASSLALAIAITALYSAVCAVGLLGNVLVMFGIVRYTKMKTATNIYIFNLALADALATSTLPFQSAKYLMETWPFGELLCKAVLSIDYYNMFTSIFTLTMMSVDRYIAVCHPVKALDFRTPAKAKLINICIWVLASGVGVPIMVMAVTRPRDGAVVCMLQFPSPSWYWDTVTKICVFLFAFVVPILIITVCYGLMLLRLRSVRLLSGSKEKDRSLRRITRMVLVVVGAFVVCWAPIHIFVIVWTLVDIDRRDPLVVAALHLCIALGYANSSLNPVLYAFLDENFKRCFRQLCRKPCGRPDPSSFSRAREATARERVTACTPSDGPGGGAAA

| Structure (SMILES) | effect on | mode | technique | cell line | concentration | measurement | result |
| --- | --- | --- | --- | --- | --- | --- | --- |
| C[Si](C)(C)C[C@@H](CN)CC(=O)O | ligand displacement |  | radioligand |  | 75 µM | inhibition | 4% |
| COc1ccc(C#CC2=C[C@H]3C[C@@]4(OC(=O)C=C24)[C@H]2CC[C@H](C(OC)OC)N32)cc1 | ligand displacement |  | radioligand |  | 10 µM | inhibition | -3% |
| CC(=O)C12NC(C)(C)CC1(C)C(=O)C1=C2c2c(c3c4n2C(C)(C)CC2=C4C4(CC(C)(C)NC(C)(C4)C2=O)CC3(C)C)C(=O)C(C)(C)N1 (single isomer, unassigned; (-)) | cAMP level | agonist | LANCE Ultra cAMP | CHO | 50 µM | activation | 1.7% |
| COc1ccc(C(=O)Nc2c(-c3cccs3)nc3ccccn23)cc1 | ligand displacement |  | radioligand |  | 10 µM | inhibition | < 50% |
| Brc1ccccc1-c1nnc(CSc2nnnn2-c2ccccc2)o1 | ligand displacement |  | radioligand |  | 10 µM | inhibition | -7% |
| COc1ccc(S(=O)(=O)N2CCc3ccccc3C2)cc1N1CCN(C(=O)c2ccc(F)cc2C(F)(F)F)CC1 | ligand displacement |  | radioligand |  | 1 µM | inhibition | 6.1% |
| O=C1c2sc(-c3ccc(N4CCC(CO)CC4)nc3F)nc2CCN1c1cccnc1 | ligand displacement |  | radioligand |  | 1 µM | inhibition | 0% |
| CO[C@@H](C)c1c(NC(=O)Nc2cnc(-n3nccn3)c(C(F)(F)F)c2)cnc2sc(C)nc12 | ligand displacement |  | radioligand |  | 10 µM | inhibition | 2.5% |
| COCC(=O)N1CCc2cc(-c3csc(NC(=O)c4cc(OC)cc(OC)c4)n3)ccc21 | cell-free assay |  |  |  | 10 µM | inhibition | -8% |
| Cc1[nH]nc2c1N=C(c1ccccc1Cl)c1cnc(N3CCOCC3)cc1N2 | cell-free assay |  |  |  | 10 µM | inhibition | 1% |
| COc1ncc2nc(C)n(Cc3ncc(S(N)(=O)=O)cc3F)c2c1-c1ccccc1 |  | agonist | cell-based |  | 10 µM | activation | -16.4% |
| Cn1ccc2cc(-n3c(=O)[nH]c4sc5c(c4c3=O)CCCC5)ccc21 | ligand displacement |  |  |  | 10 µM | inhibition | 5% |
| CCC(=O)N(C)c1ccc(Cl)c(Cl)c1 | ligand displacement |  | radioligand |  | 10 µM | inhibition | < 10% |
| CC(=O)c1cnc(N)nc1N1CC[C@H]1c1nn2ccc(Cl)c2c(=O)n1-c1ccccc1 | ligand displacement |  | radioligand |  | 10 µM | inhibition | 11% |
